Published values from different studies.
Every numbered part comes from another study and shows a few of its results, in no order.

Sample 1
Target: RING finger protein unkempt homolog, zinc fingers 1-6, GST-SBP tag (UNK, Homo sapiens, UniProt Q9C0B0, residues 30-357)
Method: RNA Bind-n-Seq
Molecule type: RNA
Matrix: in vitro
Tested at: not given
Notes: RNA with constant flanks, human-mouse chimeric sites, ends assumed
Relative to: input RNA pool
Reading: higher = stronger binding
Shared flanks, not repeated: GGGAGUUCUACAGUCCGACGAUC … CAACAGAGGAUUGAGCAUCA
Residues (chain): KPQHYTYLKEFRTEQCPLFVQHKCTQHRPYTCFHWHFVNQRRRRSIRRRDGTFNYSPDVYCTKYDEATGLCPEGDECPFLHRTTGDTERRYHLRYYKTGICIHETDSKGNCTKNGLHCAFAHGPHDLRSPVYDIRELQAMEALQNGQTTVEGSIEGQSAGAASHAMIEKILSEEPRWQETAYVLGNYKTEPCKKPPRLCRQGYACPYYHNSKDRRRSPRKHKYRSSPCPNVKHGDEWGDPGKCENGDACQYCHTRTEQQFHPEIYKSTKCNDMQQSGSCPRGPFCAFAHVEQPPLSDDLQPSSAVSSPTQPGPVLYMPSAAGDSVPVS
With `UCGGAUGCUGUGCUGGGUCACUUUUCAUAUCCAGAUCCUUCACAGUGGACAGAUGAAGAAUUAGGUAUCCCUCCUGAUGACGAGGACUGAAGGUGUAAACUCUCUGGACGAGUAGGAGCA` the bound/input enrichment was 0.926 ratio.
`AUCAAAUACUUUGGGGACAUCAUUAGUGUGGGACAGAGACUGUUGCAAGGAGCUCGGAUCUUAGGGAUUCCAGUUAUCAUAACGGAACAAUACCCUAAAGGACUUGGGAGCACGGUUCAA` gave a bound/input enrichment of 0.243 ratio.
`CUGGCACUCUAUCAGAUAUAUUAAUUUUUUAAUGUAGAUGUAAUUUUAAAAAUGAAUGGCUAGUUUACACGUUUAACUAGGCUCUUACUAUAUAUGUGUACAUAUGUAUAUAUAUAUAUA` has a bound/input enrichment of 2.23 ratio.
`GGGACUGAUUCAUCCCAAGGACAGGCAACCCCAUUUGAUGCCUGGACUGAUGACAGUAUGGAAGGGCCUAGUCAAAAUGUUGAAGCUGAGUCAAUUCAAGAUAAUGCGAGUAUGGAAGAG` gave a bound/input enrichment of 0.604 ratio.
For `AUGGAACAUUUCGAUGCGUCACUCAGUACCUAUUUCAAGGCCUUCCUAGGCCCUCGAGAUACAAGAGUCAAAGGAUGGUUCCUCCUGGACAAUUACAUCCCUACGUUUAUCUGCUCUGUU`, the bound/input enrichment was 0.0642 ratio.
With `GCAGGAUCUUCUAAGUACCAGUGGGACAUUAUGAAAUCCCUUGGGCUCUCUGAUGACGACAUAGUGAAGUUUUCUGAAGCAGAGCACUGGCUUGAUUAUUUCCCGCCACUGGCCGUUCAG` the bound/input enrichment was 0.135 ratio.
For `AAAGCCCUUGAAGAAAAAAAAAAUUCAAACAGAUUUGACAAGGGUAGCCAGCUUGGAGUCUAGCAACUUGCCAAUGUGUUUACCAAUCUGGGGGCUUGUUUUUCUUUUCUUCUUUCAAAU`, the bound/input enrichment was 0.298 ratio.
For `GAAACAUUUAAAUUUAAAGAAGCUGUUGUUCUAGGAAGUACGGACUUCCUAGAAGAUGAUAUAGAAAAAAUUGUAGAAGAACUGGGGAAAGAGUAUAAGGGCAACGCCUACCAUCUGAUG`, the bound/input enrichment was 1.54 ratio.

Sample 2
Target: Interferon regulatory factor 5, full length, phosphomimetic (IRF5, Homo sapiens, UniProt Q13568-2, residues 1-514, K96S/S451D/S453D/S456D/S462D)
Method: protein-binding microarray
Molecule type: double-stranded DNA, one strand shown
Matrix: in vitro
Tested at: 250 nM
Notes: 60-bp whole probe
Together with: salmon DNA 0.4 mg/ml
Relative to: random background probes
Reading: higher = stronger binding
Shared flanks, not repeated: GCCTAGCAC … GTCTTGATTCGCTTGACGCTGCTG
With `TCATTCCTCTTTCTCTGACTGTGCTAG` the log fluorescence was 1.65 z-score.
`TTAGGGTTCCTTTCCCTTTAGTGCTAG` has a log fluorescence of 0.751 z-score.
The log fluorescence of `GACAGACTGCTTATCCTGACGTGCTAG` is reported as -0.404 z-score.
For `TCATTTGACTCTTTCTGACTGTGCTAG`, the log fluorescence was 0.782 z-score.
`GGTTGTTTCTAATATTCTGCTGTGCTA` has a log fluorescence of 1.21 z-score.
For `TCAGGTTTCGGGTATCGGTTAGTGCTA`, the log fluorescence was 9.29 z-score.
For `TACGGTATCGGACTGGGGACGTGCTAG`, the log fluorescence was 1.06 z-score.
With `TTAGGGATCGGTATCGGTTAGTGCTAG` the log fluorescence was 5.24 z-score.

Sample 3
Target: PABPC1L2, full length, GST fusion (mouse, UniProt A0ABA7IW68)
Method: RNAcompete
Molecule type: RNA
Matrix: in vitro
Tested at: 20 nM
Notes: 7-mer, probes averaged, single round
Relative to: mean of 7-mers
Reading: higher = stronger binding
Residues (chain): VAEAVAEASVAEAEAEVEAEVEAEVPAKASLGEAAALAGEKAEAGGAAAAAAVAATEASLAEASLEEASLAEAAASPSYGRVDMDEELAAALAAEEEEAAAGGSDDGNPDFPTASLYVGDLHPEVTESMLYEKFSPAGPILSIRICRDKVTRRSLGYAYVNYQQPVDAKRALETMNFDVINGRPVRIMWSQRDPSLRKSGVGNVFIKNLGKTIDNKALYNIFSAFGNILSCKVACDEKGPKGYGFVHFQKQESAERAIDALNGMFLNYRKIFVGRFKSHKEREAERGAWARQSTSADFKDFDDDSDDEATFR
For `AGGCACU`, the 7-mer Z-score was 0.115.
With `AGAAUCC` the 7-mer Z-score was -0.296.
With `CCACACA` the 7-mer Z-score was -0.229.
The 7-mer Z-score of `ACCUUCG` is reported as -0.389.
For `GUAACGU`, the 7-mer Z-score was -0.273.
The 7-mer Z-score of `CGUCAGA` is reported as -0.208.
`UCGGCAU` has a 7-mer Z-score of -0.0917.
`ACCUCGA` has a 7-mer Z-score of -0.179.

Further values, each from its own experiment
For `VMGVIGFGF`, binding read “inactive” (HLA class I histocompatibility antigen, A alpha chain, allele A*25:01 (Homo sapiens, UniProt P04439); peptide-MHC binding; peptide; concentration not given).
